Measurements from different studies.
Each line is one published result; not all experiments were run side by side.

SMILES | organism | test | system | conditions | MIC
CC(C)(C)Oc1ccc(CC2NC(=O)C(C(=O)NC(C(=O)NC3C(=O)N4C3SC(C)(C)C4C(=O)O)c3ccccc3)=C2O)cc1 (stereo not shown) | Escherichia coli | broth microdilution | isolate IU, CTX-M-14, TEM-1 | no clavulanic acid | > 200 µg/mL
N=C(N)NCCC[C@H](NC(=O)[C@H](Cc1c[nH]c2ccccc12)NC(=O)[C@H](CCCNC(=N)N)NC(=O)[C@H](Cc1c[nH]c2ccccc12)NC(=O)[C@H](Cc1c[nH]c2ccccc12)NC(=O)[C@H](Cc1c[nH]c2ccccc12)NC(=O)[C@H](CCCNC(=N)N)NC(=O)[C@H](Cc1c[nH]c2ccccc12)NC(=O)[C@@H](N)CCCNC(=N)N)C(=O)N[C@@H](Cc1ccccc1)C(N)=O | Candida albicans | broth microdilution | CGMCC 2.209, RPMI 1640-MOPS | 48 h, 30 °C, added: CaCl2 2 mM | 16 µM
N=C(N)NCCC[C@H](NC(=O)CCCCCNC(=O)[C@H](CCCNC(=N)N)NC(=O)[C@H](CCCNC(=N)N)NC(=O)CCCCCNC(=O)[C@H](CCCNC(=N)N)NC(=O)[C@H](CCCNC(=N)N)NC(=O)CCCCCNC(=O)[C@H](CCCNC(=N)N)NC(=O)[C@H](CCCNC(=N)N)NC(=O)CCCCCNC(=O)[C@@H](N)CCCNC(=N)N)C(=O)NCCCCCC(=O)NCCC(=O)O | Escherichia coli | broth microdilution | ATCC 25922, Mueller-Hinton broth | added: LPS O55:B5 1 mg/mL | > 192 µM
CC[C@H](C)[C@H](NC(=O)[C@H](CCCCN)NC(=O)[C@H](CCCCN)NC(=O)[C@H](Cc1ccccc1)NC(=O)[C@@H](NC(=O)[C@@H](NC(=O)[C@H](CCCNC(=N)N)NC(=O)[C@H](Cc1ccccc1)NC(=O)[C@@H](NC(=O)[C@H](CCCCN)NC(=O)[C@H](CCCCN)NC(=O)[C@@H](N)CCSC)[C@@H](C)CC)C(C)C)[C@@H](C)CC)C(=O)N[C@@H](CC(C)C)C(=O)N[C@@H](CCCCN)C(=O)N[C@@H](CCCNC(=N)N)C(=O)N[C@@H](CC(C)C)C(=O)N[C@H](C(=O)N[C@H](C(=O)O)C(C)C)[C@@H](C)CC | Staphylococcus aureus | broth microdilution | ATCC 25923 | added: 1 mM MgSO4 | 4 µg/mL
CC1(C)SC2C(NC(=O)C(NC(=O)C3=C(O)C4(CC4)NC3=O)c3ccccc3)C(=O)N2C1C(=O)O (stereo not shown) | Escherichia coli | broth microdilution | ATCC 35218, low-level TEM-1 | no clavulanic acid | > 200 µg/mL
CC[C@H](C)[C@H](NC(=O)[C@H](C)NC(=O)[C@H](CCCCN)NC(=O)[C@H](CC(C)C)NC(=O)[C@H](C)NC(=O)[C@@H](NC(=O)[C@H](Cc1c[nH]cn1)NC(=O)[C@H](CC(C)C)NC(=O)[C@@H](NC(=O)[C@@H](NC(=O)[C@H](CCCCN)NC(=O)[C@H](C)NC(=O)[C@H](C)NC(=O)[C@H](CO)NC(=O)[C@H](CCCCN)NC(=O)[C@H](Cc1ccccc1)NC(=O)[C@@H](NC(=O)[C@H](CCCCN)NC(=O)[C@H](CC(C)C)NC(=O)[C@H](Cc1ccccc1)NC(=O)[C@H](CO)NC(=O)[C@H](CCCCN)NC(=O)[C@H](Cc1c[nH]c2ccccc12)NC(=O)[C@H](CCCCN)NC(C)=O)[C@@H](C)O)[C@@H](C)O)C(C)C)[C@@H](C)O)C(=O)N[C@@H](CO)C(=O)N[C@@H](CO)C(N)=O | Proteus |  |  | range over 20 strains | > 64 µg/mL
CC(C)C[C@H](NC(=O)[C@H](CCCNC(=N)N)NC(=O)[C@H](Cc1c[nH]c2ccccc12)NC(=O)[C@H](CCCNC(=N)N)NC(=O)[C@H](Cc1c[nH]c2ccccc12)NC(=O)[C@H](Cc1c[nH]c2ccccc12)NC(=O)[C@H](Cc1c[nH]c2ccccc12)NC(=O)[C@H](CCCNC(=N)N)NC(=O)[C@H](Cc1c[nH]c2ccccc12)NC(=O)[C@H](CCCNC(=N)N)NC(=O)CN)C(N)=O | Candida albicans | broth microdilution | CGMCC 2.209, RPMI 1640-MOPS | 48 h, 30 °C | 32 µM
CC1(C)SC2C(NC(=O)C(NC(=O)C3=C(O)CN(c4ccccc4)C3=O)c3ccccc3)C(=O)N2C1C(=O)O (stereo not shown) | Escherichia coli | broth microdilution | ATCC 35218, low-level TEM-1 | added: clavulanic acid 6 µg/mL | 100 µg/mL
Cc1ncc([N+](=O)[O-])n1CCO | Fusobacterium nucleatum |  |  |  | 0.06 to 0.25 µg/mL
CC(C)[C@H](NC(=O)[C@H](CCCNC(=N)N)NC(=O)[C@H](Cc1c[nH]c2ccccc12)NC(=O)[C@H](CCCNC(=N)N)NC(=O)[C@H](Cc1c[nH]c2ccccc12)NC(=O)[C@H](Cc1c[nH]c2ccccc12)NC(=O)[C@H](Cc1c[nH]c2ccccc12)NC(=O)[C@H](CCCNC(=N)N)NC(=O)[C@H](Cc1c[nH]c2ccccc12)NC(=O)[C@@H](N)CCCNC(=N)N)C(N)=O | Candida albicans | broth microdilution | CGMCC 2.209, RPMI 1640-MOPS | 48 h, 30 °C, added: MgCl2 1 mM | 32 µM
CC1(C)SC2C(NC(=O)C(NC(=O)C3=C(O)CNC3=O)c3ccccc3)C(=O)N2C1C(=O)O (stereo not shown) | Escherichia coli | broth microdilution | Keio mutant JW0587-1 | 18 h, enterobactin-related gene | 50 µg/mL
CC(C)C[C@H](NC(=O)[C@H](CCCNC(=N)N)NC(=O)[C@H](Cc1c[nH]c2ccccc12)NC(=O)[C@H](CCCNC(=N)N)NC(=O)[C@H](Cc1c[nH]c2ccccc12)NC(=O)[C@H](Cc1c[nH]c2ccccc12)NC(=O)[C@H](Cc1c[nH]c2ccccc12)NC(=O)[C@H](CCCNC(=N)N)NC(=O)[C@H](Cc1c[nH]c2ccccc12)NC(=O)[C@@H](N)CCCNC(=N)N)C(N)=O | Candida albicans | broth microdilution | CGMCC 2.209, RPMI 1640-MOPS | 48 h, 30 °C, added: KCl 4.5 mM | 8 µM
CC1(C)SC2C(NC(=O)C(NC(=O)C3=C(O)C4CCCN4C3=O)c3ccccc3)C(=O)N2C1C(=O)O (stereo not shown) | Escherichia coli | broth microdilution | Keio mutant JW5086-3 | 18 h, ferrienterobactin permease gene | 25 µg/mL
Oc1c(Br)cc(Br)cc1-c1[nH]c(Br)c(Br)c1Br | Providencia alcalifaciens |  | ATCC 9886 |  | 32 µM
CC(C)C[C@H](NC(=O)[C@@H](NC(=O)[C@H](CCCNC(=N)N)NC(=O)[C@H](CCC(N)=O)NC(=O)[C@H](Cc1ccccc1)NC(=O)[C@H](Cc1ccc(O)cc1)NC(=O)[C@H](CC(N)=O)NC(=O)[C@H](Cc1c[nH]c2ccccc12)NC(=O)[C@@H](NC(=O)[C@H](CCCNC(=N)N)NC(=O)[C@H](CCCCN)NC(=O)[C@@H](N)Cc1ccccc1)C(C)C)C(C)C)C(=O)N[C@H](C(=O)N[C@@H](CCCCN)C(=O)N[C@@H](CCCCN)C(=O)N[C@@H](Cc1ccc(O)cc1)C(=O)N[C@@H](C)C(N)=O)C(C)C | Enterobacter sp. | broth dilution | KCTC 2625 |  | > 100 µM
CC(C)C[C@@H](NC(=O)[C@H](C)NC(=O)CNC(=O)[C@@H](NC=O)C(C)C)C(=O)N[C@@H](C)C(=O)N[C@@H](C(=O)N[C@H](C(=O)N[C@@H](C(=O)N[C@@H](Cc1c[nH]c2ccccc12)C(=O)N[C@H](CC(C)C)C(=O)N[C@@H](Cc1cc2ccccc2[nH]1)C(=O)N[C@H](CC(C)C)C(=O)N[C@@H](Cc1c[nH]c2ccccc12)C(=O)N[C@H](CC(C)C)C(=O)N[C@@H](Cc1c[nH]c2ccccc12)C(=O)NCCO)C(C)C)C(C)C)C(C)C | Listeria monocytogenes | broth microdilution | 10403S |  | 2.1 µM
CC1NC(=O)C(C(=O)NC(C(=O)NC2C(=O)N3C2SC(C)(C)C3C(=O)O)c2ccccc2)=C1O (stereo not shown) | Escherichia coli | broth microdilution | Keio mutant JW5195-1 | 18 h | 50 µg/mL
N=C(N)NCCC[C@H](NC(=O)CN)C(=O)N[C@@H](Cc1c[nH]c2ccccc12)C(=O)N[C@@H](CCCNC(=N)N)C(=O)N[C@@H](Cc1c[nH]c2ccccc12)C(=O)N[C@@H](Cc1c[nH]c2ccccc12)C(=O)N[C@@H](Cc1c[nH]c2ccccc12)C(=O)N[C@@H](CCCNC(=N)N)C(=O)N[C@@H](Cc1c[nH]c2ccccc12)C(=O)N[C@@H](CCCNC(=N)N)C(=O)N[C@@H](Cc1c[nH]c2ccccc12)C(N)=O | Candida albicans | broth microdilution | CGMCC 2.209, RPMI 1640-MOPS | 48 h, 30 °C, added: CaCl2 2 mM | 8 µM
CC[C@H](C)[C@H](N)C(=O)N[C@@H](CCCNC(=N)N)C(=O)N[C@H](C(=O)N[C@@H](Cc1c[nH]c2ccccc12)C(=O)N[C@@H](Cc1c[nH]c2ccccc12)C(=O)N[C@@H](CCCCN)C(=O)N[C@H](C(=O)N[C@H](C(=O)N[C@@H](CCCNC(=N)N)C(=O)N[C@@H](CCCCN)C(=O)N[C@@H](Cc1c[nH]c2ccccc12)C(=O)N[C@@H](CCCCN)C(=O)N[C@@H](C)C(=O)N[C@H](C(=O)N[C@@H](Cc1c[nH]c2ccccc12)C(=O)N[C@@H](Cc1c[nH]cn1)C(N)=O)[C@@H](C)CC)C(C)C)[C@@H](C)CC)C(C)C | Enterobacter sp. | broth dilution | KCTC 2625 |  | 25 µM

Repeated from above:
SMILES | organism | test | system | conditions | MIC
CC[C@H](C)[C@H](NC(=O)[C@H](CCCCN)NC(=O)[C@H](CCCCN)NC(=O)[C@H](Cc1ccccc1)NC(=O)[C@@H](NC(=O)[C@@H](NC(=O)[C@H](CCCNC(=N)N)NC(=O)[C@H](Cc1ccccc1)NC(=O)[C@@H](NC(=O)[C@H](CCCCN)NC(=O)[C@H](CCCCN)NC(=O)[C@@H](N)CCSC)[C@@H](C)CC)C(C)C)[C@@H](C)CC)C(=O)N[C@@H](CC(C)C)C(=O)N[C@@H](CCCCN)C(=O)N[C@@H](CCCNC(=N)N)C(=O)N[C@@H](CC(C)C)C(=O)N[C@H](C(=O)N[C@H](C(=O)O)C(C)C)[C@@H](C)CC | Staphylococcus aureus | broth microdilution | ATCC 25923 | added: 1 mM MgSO4 | 4 µg/mL
CC1(C)SC2C(NC(=O)C(NC(=O)C3=C(O)C4(CC4)NC3=O)c3ccccc3)C(=O)N2C1C(=O)O (stereo not shown) | Escherichia coli | broth microdilution | ATCC 35218, low-level TEM-1 | no clavulanic acid | > 200 µg/mL
